Assay results pooled from the literature.
A part holds a random share of what one study measured.

Sample 1
SMILES: CN([C@@H]1CCc2c(CC(=O)O)c3ccccc3n2C1)S(=O)(=O)c1ccc(F)cc1
Concentration: 1 µM
For AAK1 (Homo sapiens, UniProt Q2M2I8); binding: remaining binding read 100%.
For ACVR1B (Homo sapiens, UniProt P36896); cell-free assay, competition with immobilised ligand: remaining binding read 96%.
It gave 99% for remaining binding (STK16 (Homo sapiens, UniProt O75716); cell-free assay, competition with immobilised ligand).
For NEK3 (Homo sapiens, UniProt P51956); cell-free assay, competition with immobilised ligand: remaining binding read 93%.
SIK2 (Homo sapiens, UniProt Q9H0K1); cell-free assay, competition with immobilised ligand — remaining binding: 99%.
For STK36 (Homo sapiens, UniProt Q9NRP7); cell-free assay, competition with immobilised ligand: remaining binding read 100%.
PRKD3 (Homo sapiens, UniProt O94806); cell-free assay, competition with immobilised ligand — remaining binding: 94%.
For CSNK1A1L (Homo sapiens, UniProt Q8N752); cell-free assay, competition with immobilised ligand: remaining binding read 100%.
For MYLK4 (Homo sapiens, UniProt Q86YV6); cell-free assay, competition with immobilised ligand: remaining binding read 100%.
TAOK3 (Homo sapiens, UniProt Q9H2K8); cell-free assay, competition with immobilised ligand — remaining binding: 73%.

Sample 2
Structure (SMILES): O=C(Nc1ccccc1)Nc1cccc(Oc2ccc3nccn3n2)c1
Method: competitive binding panel
Concentration: 1 µM
Baseline: vehicle
It gave 100% for remaining binding (PIK3CA (Homo sapiens, UniProt P42336, C420R)).
RIPK1 (Homo sapiens, UniProt Q13546) — remaining binding: 98%.
MAPKAPK5 (Homo sapiens, UniProt Q8IW41) — remaining binding: 100%.
The remaining binding was 86% (PIK3CD (Homo sapiens, UniProt O00329)).
For PIK3C2B (Homo sapiens, UniProt O00750): remaining binding read 100%.
The remaining binding was 100% (LATS1 (Homo sapiens, UniProt O95835)).
It gave 100% for remaining binding (CDK9 (Homo sapiens, UniProt P50750)).
It gave 100% for remaining binding (PIM1 (Homo sapiens, UniProt P11309)).
The remaining binding was 98% (PIK3CA (Homo sapiens, UniProt P42336, H1047Y)).

Sample 3
SMILES: CO[C@@H]1[C@H](N(C)C(=O)c2ccccc2)C[C@H]2O[C@]1(C)n1c3ccccc3c3c4c(c5c6ccccc6n2c5c31)C(=O)NC4
Observed: enzyme activity
Action: inhibitor
Concentration: 1 µM
For BUB1 (Homo sapiens, UniProt O43683): inhibition read 8%.
COQ8B (Homo sapiens, UniProt Q96D53) — inhibition: 0%.
It gave 0% for inhibition (CSNK1A1L (Homo sapiens, UniProt Q8N752)).
For AKT3 (Homo sapiens, UniProt Q9Y243): inhibition read 0%.
CLK1 (Homo sapiens, UniProt P49759) — inhibition: 87%.
It gave 5% for inhibition (HIPK2 (Homo sapiens, UniProt Q9H2X6)).
DCLK2 (Homo sapiens, UniProt Q8N568) — inhibition: 0%.

Sample 4
Target: Serine/threonine-protein kinase pim-1 (PIM1, Homo sapiens, UniProt P11309)
Observed: enzyme activity
Action: inhibitor
Concentration: 0.5 µM
Baseline: control
For `Cc1cccc(-c2[nH]c(C(C)(C)C)nc2-c2ccc3c(c2)OCO3)n1`, the remaining activity was 100%.
`Nc1ncnc2n[nH]c(Nc3ccc(F)cc3)c12` gave a remaining activity of 95.5%.
`O=c1c2ccccc2[nH]c(=S)n1CCN1CCC(=C(c2ccc(F)cc2)c2ccc(F)cc2)CC1` gave a remaining activity of 105%.
`OCC(O)CCON=C1C(c2c(O)[nH]c3ccccc23)=Nc2ccccc21` (centres unmarked) has a remaining activity of 59.7%.
`O=C(O)c1ccc2c3c1cccc3c(=O)n1c3ccccc3nc21` gave a remaining activity of 59.5%.
The remaining activity of `O=C(Nc1cccc(Nc2cc(Nc3cccc(C(F)(F)F)c3)ncn2)c1)C1CC1` is reported as 104%.
For `O=C1NC(=O)C(c2cn(CCCn3ccnc3)c3ccccc23)=C1Nc1ccccc1`, the remaining activity was 79.1%.
`COc1ccc(CNC(=O)Nc2ncc([N+](=O)[O-])s2)cc1` has a remaining activity of 104%.
`CCOC(=O)c1c(C)[nH]c(/C=C2\C(=O)Nc3ccccc32)c1C` gave a remaining activity of 95.8%.
For `O=C(CCCc1ccc(-c2ccccc2F)cc1)Nc1ccc(O)cc1`, the remaining activity was 97.9%.
`O=C1NC(=O)C(c2cn(CCCO)c3ncccc23)=C1c1cnccn1` gave a remaining activity of 43.9%.
`COc1cc2ncnc(Nc3ccc(Oc4ccccc4)cc3)c2cc1OC` has a remaining activity of 102%.
The remaining activity of `COc1ccc(C(=O)Nc2sc3c(c2C(N)=O)CCCC3)cc1OC` is reported as 98.9%.
For `Cn1c2ccccc2c2c3c(c4c5ccccc5n(CCC#N)c4c21)CNC3=O`, the remaining activity was 36.1%.
For `C#Cc1cccc(Nc2ncnc3cc(OCCOC)c(OCCOC)cc23)c1`, the remaining activity was 97%.

Excerpt of the above (sample 3):
DCLK2 (Homo sapiens, UniProt Q8N568) — inhibition: 0%.
For BUB1 (Homo sapiens, UniProt O43683): inhibition read 8%.
It gave 5% for inhibition (HIPK2 (Homo sapiens, UniProt Q9H2X6)).
It gave 0% for inhibition (CSNK1A1L (Homo sapiens, UniProt Q8N752)).
CLK1 (Homo sapiens, UniProt P49759) — inhibition: 87%.
